# Published values pooled from the literature.
# Protocols differ between the studies behind these lines. Values joined by “and” are separate records of one study, mostly repeats; a detail may differ. Numbers after ± are the reported error.
SMILES,target,test,test system,conditions,how to read,quantity,value
[64Cu+2].c1cnc(CNCc2ccc(CN3CCCN4CCNCCCN(CC4)CC3)cc2)nc1,"CXCR4 (Homo sapiens, UniProt P61073)",,"NOD/SCID mouse, U87-stb-CXCR4 tumour","dose not given, 90 to 240 min",baseline: maximum uptake,retained radioactivity,~70%
CSCC[C@H](NC(=O)[C@H](CO)NC(=O)[C@@H](NC(=O)[C@H](CCC(N)=O)NC(C)=O)[C@@H](C)O)C(=O)N[C@H](C(=O)N[C@@H](CC(=O)O)C(=O)N[C@@H](Cc1ccccc1)C(=O)N[C@@H](Cc1ccc(O)cc1)C(=O)N[C@@H](Cc1c[nH]cn1)C(=O)N[C@@H](CO)C(N)=O)[C@@H](C)O,"PCNA (Homo sapiens, UniProt P12004)","binding, isothermal titration calorimetry",,"pH 7.4, 25 °C, 100 mM NaCl, added: p21 peptide",,entropic term −TΔS,7.17 ± 1.91 kcal/mol
O=C(NC[C@@H](Cc1ccc(F)cc1)N1CCC(O)(C(F)(F)F)CC1)C1(c2ccc(Cl)cc2)CCCC1,"TRPA1 (Homo sapiens, UniProt O75762)",calcium influx,HEK293F transiently expressing TRPA1,,,Hill slope,1.6 and 1.5
CC(=O)NCCN(CC(=O)NCCN(CC(=O)NCCN(CC(=O)NCCC(N)=O)C(=O)C[C@@H](N)Cc1ccccc1)C(=O)C[C@@H](N)Cc1ccccc1)C(=O)C[C@@H](N)CCCNC(=N)N,HIV-1 TAR RNA,,,,,non-electrostatic TΔS°,1.72 ± 0.191 kcal/mol
COc1ccc2c(Cl)c(C(N)=O)sc2n1,"GAK (Homo sapiens, UniProt O14976)","binding, weak affinity chromatography-MS",,flow 20 µL/min,higher = stronger binding,adjusted retention time,108 min
O=C1CC[C@H](N2Cc3cc(-c4cnn5ccc(NC6CCOCC6)nc45)ccc3C2=O)C(=O)N1,"Cereblon/Casein kinase I alpha (CSNK1A1/CRBN, Homo sapiens, UniProt P48729+Q96SW2)","protein level, degrader, luciferase",MOLT-4,,,Dmax,14%
CC(C)(C)CCN1C[C@@H]2[C@@H](CNC(=O)c3cc(Cl)cc(Cl)c3)[C@@H]2C1.Cl,"Voltage-dependent L-type calcium channel subunit alpha-1F, exon 47 deletion isoform (Homo sapiens, UniProt O60840)","calcium current, whole-cell patch clamp",HEK-293T cells,50 nM,,activation slope factor k,7.91 ± 0.32 mV
CSCC[C@H](NC(=O)[C@H](CO)NC(=O)[C@H](CC(N)=O)NC(=O)[C@H](CC(C)C)NC(=O)[C@H](Cc1c[nH]cn1)NC(=O)[C@H](CCCCN)NC(=O)CNC(=O)[C@H](CCCCN)NC(=O)[C@H](CC(=O)O)NC(=O)[C@H](Cc1c[nH]cn1)NC(=O)[C@H](CC(C)C)NC(=O)[C@H](CC(C)C)NC(=O)[C@H](CCC(N)=O)NC(=O)[C@H](Cc1c[nH]cn1)NC(=O)[C@H](CCC(=O)O)NC(=O)[C@H](CO)NC(=O)[C@@H](NC(=O)[C@H](C)N)C(C)C)C(=O)N[C@@H](CCC(=O)O)C(=O)N[C@@H](CCCNC(=N)N)C(=O)N[C@H](C(=O)N[C@@H](CCC(=O)O)C(=O)N[C@@H](Cc1c[nH]c2ccccc12)C(=O)N[C@@H](CC(C)C)C(=O)N[C@@H](CCCNC(=N)N)C(=O)N[C@@H](CCCCN)C(=O)N[C@@H](CCCCN)C(=O)N[C@@H](CC(C)C)C(=O)N[C@@H](CCC(N)=O)C(=O)N[C@@H](CC(=O)O)C(=O)N[C@H](C(=O)N[C@@H](Cc1c[nH]cn1)C(=O)N[C@@H](CC(N)=O)C(=O)N[C@@H](Cc1ccccc1)C(=O)N[C@@H](CCCCNC(=O)c1ccc2c(c1)C1(OC2=O)c2ccc(N(C)C)cc2Oc2cc(N(C)C)ccc21)C(N)=O)C(C)C)C(C)C,"PTH1R (Homo sapiens, UniProt Q03431)","binding, NanoBRET",HEK293,,,koff,0.029 ± 0.009 s⁻¹
O=C(O)[C@H]1O[C@@H](O[C@@H]2c3cc4ccc5cccc6c7ccccc7c(c3C=C[C@H]2O)c4c56)[C@H](O)[C@@H](O)[C@@H]1O,"UGT1A9 (Homo sapiens, UniProt O60656)","glucuronidation, substrate",HEK293 homogenate,,baseline: UGT1A9 over UGT1A1,catalytic efficiency ratio,~4570 fold
OC[C@@H]1[C@@H](O)[C@H](O)[C@@H](O)CN1CCCCCOCC1CCOC1 (stereo partly drawn),"Beta-glucosidase (GBA2, Homo sapiens, UniProt Q9HCG7)","enzyme activity, inhibitor, 4-MU-β-D-glucopyranoside",HEK293T cell homogenate,,baseline: GCS IC50 over GBA2 IC50,selectivity ratio,989
O=S(=O)(Nc1ccc(O)c2ccccc12)c1ccc(Cl)cc1,"CD38 (Homo sapiens, UniProt P28907)","hydrolase activity, fluorometric",,"50 µM, added: ε-NAD+ substrate",baseline: untreated,remaining activity,95.9 ± 1.4%
COc1cc(C2CC(=O)Nc3nc(N)[nH]c(=O)c32)ccc1O (stereo not drawn),"uncharacterized protein (Leishmania donovani, UniProt A0A3Q8IA09)",competitive ITC,,"concentration not given, added: glutamate 60 µM",,binding stoichiometry,3.59 ± 0.178

# Some of these lines once more:
SMILES,target,test,test system,conditions,how to read,quantity,value
O=C1CC[C@H](N2Cc3cc(-c4cnn5ccc(NC6CCOCC6)nc45)ccc3C2=O)C(=O)N1,"Cereblon/Casein kinase I alpha (CSNK1A1/CRBN, Homo sapiens, UniProt P48729+Q96SW2)","protein level, degrader, luciferase",MOLT-4,,,Dmax,14%
